{"data": "Measurements gathered from unrelated publications", "note": "Numbered parts are unrelated; each lists some results of a single study.", "UniProt P10721, sequence (whole entry, unmodified, looked up)": "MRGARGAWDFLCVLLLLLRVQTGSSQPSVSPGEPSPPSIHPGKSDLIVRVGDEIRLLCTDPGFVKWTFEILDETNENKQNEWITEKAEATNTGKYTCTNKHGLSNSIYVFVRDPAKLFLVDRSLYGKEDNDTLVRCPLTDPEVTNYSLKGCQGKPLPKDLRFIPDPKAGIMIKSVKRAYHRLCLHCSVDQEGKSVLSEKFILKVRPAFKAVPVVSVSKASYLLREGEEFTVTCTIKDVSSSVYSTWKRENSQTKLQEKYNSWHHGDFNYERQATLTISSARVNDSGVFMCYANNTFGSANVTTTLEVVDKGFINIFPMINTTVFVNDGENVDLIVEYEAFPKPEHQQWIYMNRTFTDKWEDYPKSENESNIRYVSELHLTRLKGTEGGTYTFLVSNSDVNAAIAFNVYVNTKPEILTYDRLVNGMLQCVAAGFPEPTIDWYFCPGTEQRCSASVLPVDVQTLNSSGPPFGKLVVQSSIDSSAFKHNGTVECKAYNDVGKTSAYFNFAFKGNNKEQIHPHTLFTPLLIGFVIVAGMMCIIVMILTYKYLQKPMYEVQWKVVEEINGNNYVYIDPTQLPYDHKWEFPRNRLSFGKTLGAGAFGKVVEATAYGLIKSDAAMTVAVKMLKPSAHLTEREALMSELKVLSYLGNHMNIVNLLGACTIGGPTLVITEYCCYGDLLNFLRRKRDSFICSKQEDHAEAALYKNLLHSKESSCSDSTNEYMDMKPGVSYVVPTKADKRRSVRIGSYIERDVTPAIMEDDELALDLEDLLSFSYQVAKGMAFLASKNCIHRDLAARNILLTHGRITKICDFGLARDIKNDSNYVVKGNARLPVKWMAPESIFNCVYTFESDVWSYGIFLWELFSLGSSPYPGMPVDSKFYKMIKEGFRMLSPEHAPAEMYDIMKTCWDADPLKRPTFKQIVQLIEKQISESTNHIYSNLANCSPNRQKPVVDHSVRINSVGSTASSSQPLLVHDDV", "UniProt Q9UK32, sequence (whole entry, looked up)": "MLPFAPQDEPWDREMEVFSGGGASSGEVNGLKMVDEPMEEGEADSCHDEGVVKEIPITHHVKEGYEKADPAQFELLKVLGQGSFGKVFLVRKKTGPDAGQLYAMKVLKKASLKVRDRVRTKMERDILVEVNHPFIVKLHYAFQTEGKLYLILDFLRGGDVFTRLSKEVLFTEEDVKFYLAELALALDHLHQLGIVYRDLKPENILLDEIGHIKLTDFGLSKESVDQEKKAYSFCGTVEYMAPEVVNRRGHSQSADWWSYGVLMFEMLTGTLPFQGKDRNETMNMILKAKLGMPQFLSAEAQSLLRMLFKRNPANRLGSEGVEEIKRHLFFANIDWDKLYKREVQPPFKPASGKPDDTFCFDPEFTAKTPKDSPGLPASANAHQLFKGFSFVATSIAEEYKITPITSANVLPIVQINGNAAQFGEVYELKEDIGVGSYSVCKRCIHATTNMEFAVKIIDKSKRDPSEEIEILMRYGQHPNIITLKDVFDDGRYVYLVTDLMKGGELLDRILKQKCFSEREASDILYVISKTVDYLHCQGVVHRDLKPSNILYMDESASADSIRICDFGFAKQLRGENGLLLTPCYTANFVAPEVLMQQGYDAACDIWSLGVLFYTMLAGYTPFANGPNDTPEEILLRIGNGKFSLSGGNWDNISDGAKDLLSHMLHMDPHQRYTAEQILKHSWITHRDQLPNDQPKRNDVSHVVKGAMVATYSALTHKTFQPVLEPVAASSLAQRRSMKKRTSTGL", "UniProt Q8NE63, sequence (whole entry, looked up)": "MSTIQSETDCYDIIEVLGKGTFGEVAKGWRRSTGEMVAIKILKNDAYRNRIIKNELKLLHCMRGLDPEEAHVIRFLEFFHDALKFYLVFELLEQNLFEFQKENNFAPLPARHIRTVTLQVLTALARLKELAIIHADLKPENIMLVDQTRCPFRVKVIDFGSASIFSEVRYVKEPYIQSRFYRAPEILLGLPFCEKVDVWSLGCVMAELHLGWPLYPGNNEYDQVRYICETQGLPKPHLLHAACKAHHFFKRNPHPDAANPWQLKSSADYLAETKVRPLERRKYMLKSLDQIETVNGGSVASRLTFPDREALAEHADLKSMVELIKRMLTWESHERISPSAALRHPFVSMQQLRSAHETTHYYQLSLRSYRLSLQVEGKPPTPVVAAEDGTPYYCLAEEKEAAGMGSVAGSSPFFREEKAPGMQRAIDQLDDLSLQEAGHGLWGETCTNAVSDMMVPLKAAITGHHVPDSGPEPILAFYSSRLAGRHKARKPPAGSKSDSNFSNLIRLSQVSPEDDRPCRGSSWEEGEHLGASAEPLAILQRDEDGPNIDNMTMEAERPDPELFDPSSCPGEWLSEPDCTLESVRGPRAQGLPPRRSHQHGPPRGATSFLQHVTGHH", "UniProt P11802, sequence (whole entry, looked up)": "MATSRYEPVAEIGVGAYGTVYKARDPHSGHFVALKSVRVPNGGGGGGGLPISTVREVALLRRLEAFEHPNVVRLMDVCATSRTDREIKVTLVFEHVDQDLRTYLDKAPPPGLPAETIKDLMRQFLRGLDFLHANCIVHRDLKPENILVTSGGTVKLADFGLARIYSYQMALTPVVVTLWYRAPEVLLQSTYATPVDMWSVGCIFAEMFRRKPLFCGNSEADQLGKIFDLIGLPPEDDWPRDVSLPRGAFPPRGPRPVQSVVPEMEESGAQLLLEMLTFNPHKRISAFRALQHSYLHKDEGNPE", "UniProt Q00534, sequence (whole entry, looked up)": "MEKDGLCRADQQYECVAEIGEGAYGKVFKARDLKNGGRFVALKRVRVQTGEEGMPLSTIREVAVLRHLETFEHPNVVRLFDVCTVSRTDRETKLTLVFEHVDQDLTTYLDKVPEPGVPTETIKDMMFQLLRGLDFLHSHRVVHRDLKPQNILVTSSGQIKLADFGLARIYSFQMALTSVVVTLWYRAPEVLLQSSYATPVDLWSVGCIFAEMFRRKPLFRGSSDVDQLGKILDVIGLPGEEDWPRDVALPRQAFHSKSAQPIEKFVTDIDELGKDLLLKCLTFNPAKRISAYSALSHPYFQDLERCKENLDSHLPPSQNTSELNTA", "UniProt O60285, sequence (whole entry, looked up)": "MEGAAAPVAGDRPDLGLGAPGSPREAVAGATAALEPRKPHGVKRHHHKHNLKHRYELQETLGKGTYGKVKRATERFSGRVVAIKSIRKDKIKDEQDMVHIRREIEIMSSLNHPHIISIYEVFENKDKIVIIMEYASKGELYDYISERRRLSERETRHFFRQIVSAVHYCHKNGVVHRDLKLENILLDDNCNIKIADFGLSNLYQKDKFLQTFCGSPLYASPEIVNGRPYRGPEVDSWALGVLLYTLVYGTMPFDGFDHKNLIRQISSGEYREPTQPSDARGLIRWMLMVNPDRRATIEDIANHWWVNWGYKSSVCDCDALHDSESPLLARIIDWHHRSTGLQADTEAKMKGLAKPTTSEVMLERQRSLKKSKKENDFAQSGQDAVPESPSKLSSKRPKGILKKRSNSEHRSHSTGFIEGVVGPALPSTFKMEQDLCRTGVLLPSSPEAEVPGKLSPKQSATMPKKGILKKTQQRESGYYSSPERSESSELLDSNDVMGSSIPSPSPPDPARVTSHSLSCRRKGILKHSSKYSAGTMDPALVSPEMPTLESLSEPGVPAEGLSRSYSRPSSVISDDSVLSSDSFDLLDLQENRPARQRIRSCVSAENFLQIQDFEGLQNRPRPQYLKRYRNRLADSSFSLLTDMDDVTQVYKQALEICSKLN", "UniProt O75716, sequence (whole entry, looked up)": "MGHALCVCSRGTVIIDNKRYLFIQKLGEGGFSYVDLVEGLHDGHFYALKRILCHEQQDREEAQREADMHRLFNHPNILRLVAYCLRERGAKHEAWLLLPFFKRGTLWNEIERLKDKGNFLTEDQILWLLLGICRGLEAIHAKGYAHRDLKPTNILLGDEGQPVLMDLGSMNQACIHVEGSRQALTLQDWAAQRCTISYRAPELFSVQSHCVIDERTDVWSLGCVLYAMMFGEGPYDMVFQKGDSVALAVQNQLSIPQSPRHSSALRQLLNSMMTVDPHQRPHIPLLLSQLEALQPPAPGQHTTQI"}
{"data": "Series 1", "SMILES": "CCOCCn1cc(C(=O)Nc2ccc(-n3nc(-c4cccnc4)cc3C(F)(F)F)cn2)ccc1=O", "technique": "competition with immobilised ligand", "tested at": "1 µM"}
{"target": "PIP4K2C (Homo sapiens, UniProt Q8TBX8)", "assay": "cell-free assay", "remaining binding [%]": 100}
{"target": "BRSK2 (Homo sapiens, UniProt Q8IWQ3)", "assay": "cell-free assay", "remaining binding [%]": 100}
{"target": "eIF-2-alpha kinase GCN2, C-terminal kinase domain (EIF2AK4, Homo sapiens, UniProt Q9P2K8, S808G)", "assay": "cell-free assay", "remaining binding [%]": 72}
{"target": "Tyrosine-protein kinase ABL1, non-phosphorylated (ABL1, Homo sapiens, UniProt P00519, F317I)", "assay": "binding", "remaining binding [%]": 74}
{"target": "ZAP70 (Homo sapiens, UniProt P43403)", "assay": "cell-free assay", "remaining binding [%]": 67}
{"target": "CAMK1D (Homo sapiens, UniProt Q8IU85)", "assay": "cell-free assay", "remaining binding [%]": 100}
{"target": "NUAK1 (Homo sapiens, UniProt O60285)", "assay": "cell-free assay", "remaining binding [%]": 100}
{"target": "MUSK (Homo sapiens, UniProt O15146)", "assay": "cell-free assay", "remaining binding [%]": 99}
{"target": "Mast/stem cell growth factor receptor Kit, autoinhibited (KIT, Homo sapiens, UniProt P10721)", "assay": "cell-free assay", "remaining binding [%]": 89}
{"target": "WNK1 (Homo sapiens, UniProt Q9H4A3)", "assay": "cell-free assay", "remaining binding [%]": 82}
{"target": "Tyrosine-protein kinase ABL1, phosphorylated (ABL1, Homo sapiens, UniProt P00519, H396P)", "assay": "cell-free assay", "remaining binding [%]": 94}
{"target": "HIPK4 (Homo sapiens, UniProt Q8NE63)", "assay": "cell-free assay", "remaining binding [%]": 100}
{"target": "KIT (Homo sapiens, UniProt P10721, V559D)", "assay": "cell-free assay", "remaining binding [%]": 87}
{"target": "Ribosomal protein S6 kinase alpha-6, N-terminal kinase domain (RPS6KA6, Homo sapiens, UniProt Q9UK32)", "assay": "cell-free assay", "remaining binding [%]": 81}
{"data": "Series 2", "SMILES": "C=CCc1ccc(O)c(-c2cc(CC=C)ccc2O)c1", "ANO1 del476-501/E649A/R541A": "Anoctamin-1 (ANO1, Homo sapiens, UniProt Q5XXA6, del476-501/E649A/R541A)", "ANO1 del476-501/E649A": "Anoctamin-1 (ANO1, Homo sapiens, UniProt Q5XXA6, del476-501/E649A)", "UniProt Q5XXA6, sequence (whole entry, unmodified, looked up)": "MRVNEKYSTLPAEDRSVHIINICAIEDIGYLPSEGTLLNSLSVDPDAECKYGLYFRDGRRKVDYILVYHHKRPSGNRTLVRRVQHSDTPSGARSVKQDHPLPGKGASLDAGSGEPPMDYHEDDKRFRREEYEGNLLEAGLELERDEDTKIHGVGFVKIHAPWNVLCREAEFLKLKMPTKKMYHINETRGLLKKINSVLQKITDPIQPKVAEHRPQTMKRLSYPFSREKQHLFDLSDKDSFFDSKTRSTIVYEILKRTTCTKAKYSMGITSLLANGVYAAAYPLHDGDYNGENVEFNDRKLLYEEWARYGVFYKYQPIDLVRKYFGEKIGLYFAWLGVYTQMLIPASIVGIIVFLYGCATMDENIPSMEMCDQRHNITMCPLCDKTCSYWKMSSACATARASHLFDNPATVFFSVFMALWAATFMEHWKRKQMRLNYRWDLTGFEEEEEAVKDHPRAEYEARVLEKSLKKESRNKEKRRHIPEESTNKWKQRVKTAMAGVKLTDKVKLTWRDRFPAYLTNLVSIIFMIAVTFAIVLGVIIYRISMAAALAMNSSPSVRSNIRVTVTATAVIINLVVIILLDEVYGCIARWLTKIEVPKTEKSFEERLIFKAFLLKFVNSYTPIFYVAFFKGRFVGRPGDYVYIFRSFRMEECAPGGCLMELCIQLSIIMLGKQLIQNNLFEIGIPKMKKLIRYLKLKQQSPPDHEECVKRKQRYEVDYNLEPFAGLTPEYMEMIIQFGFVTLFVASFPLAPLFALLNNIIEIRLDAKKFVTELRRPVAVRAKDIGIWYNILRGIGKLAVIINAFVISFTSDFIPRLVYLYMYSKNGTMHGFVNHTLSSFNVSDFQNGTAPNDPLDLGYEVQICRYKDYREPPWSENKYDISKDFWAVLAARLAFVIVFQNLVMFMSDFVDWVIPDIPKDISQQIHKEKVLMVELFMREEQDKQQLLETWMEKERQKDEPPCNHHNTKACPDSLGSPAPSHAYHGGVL"}
{"target": "Anoctamin-1 (ANO1, Homo sapiens, UniProt Q5XXA6, del476-501/K629A)", "assay": "chloride current, inside-out patch clamp", "setting": "30 µM, membrane voltage -60 mV", "normalized current": -0.355}
{"target": "ANO1 del476-501/E649A/R541A", "assay": "chloride current, inside-out patch clamp", "setting": "30 µM, membrane voltage 20 mV", "normalized current": 0.0954}
{"target": "ANO1 del476-501/E649A", "assay": "chloride current, inhibitor, whole-cell voltage clamp", "setting": "3 µM, E623A mutant", "normalized current": 1}
{"target": "ANO1 del476-501/E649A/R541A", "assay": "chloride current, inside-out patch clamp", "setting": "30 µM, membrane voltage 80 mV", "normalized current": 0.541}
{"target": "ANO1 del476-501/E649A", "assay": "ion current, inside-out patch clamp", "setting": "30 µM, E623A mutant at 0 mV", "normalized current": -0.0002}
{"data": "Series 3", "SMILES": "CC(C)n1cnc2c(Nc3cccc(Cl)c3)nc(NCCO)nc21", "read-out": "enzyme activity", "mode": "inhibitor", "tested at": "0.5 µM", "reference": "control"}
{"target": "AXL (Homo sapiens, UniProt P30530)", "remaining activity": "91.3%"}
{"target": "Cyclin-dependent kinase 6, with cyclin D3 (CDK6, Homo sapiens, UniProt Q00534)", "remaining activity": "89.7%"}
{"target": "STK17A (Homo sapiens, UniProt Q9UEE5)", "remaining activity": "96.8%"}
{"target": "SRMS (Homo sapiens, UniProt Q9H3Y6)", "remaining activity": "85.1%"}
{"target": "EPHA4 (Homo sapiens, UniProt P54764)", "remaining activity": "87.5%"}
{"target": "HIPK2 (Homo sapiens, UniProt Q9H2X6)", "remaining activity": "93.3%"}
{"target": "PDPK1 (Homo sapiens, UniProt O15530)", "remaining activity": "96.8%"}
{"target": "TSSK2 (Homo sapiens, UniProt Q96PF2)", "remaining activity": "107%"}
{"target": "HIPK4 (Homo sapiens, UniProt Q8NE63)", "remaining activity": "94.6%"}
{"target": "STK16 (Homo sapiens, UniProt O75716)", "remaining activity": "89.8%"}
{"target": "PHKG1 (Homo sapiens, UniProt Q16816)", "remaining activity": "75.8%"}
{"target": "DYRK3 (Homo sapiens, UniProt O43781)", "remaining activity": "97.2%"}
{"target": "Cyclin-dependent kinase 4, with cyclin D3 (CDK4, Homo sapiens, UniProt P11802)", "remaining activity": "93.3%"}
{"target": "ABL1 (Homo sapiens, UniProt P00519)", "remaining activity": "73.3%"}
{"target": "MAP4K4 (Homo sapiens, UniProt O95819)", "remaining activity": "75.5%"}
{"target": "CAMK2B (Homo sapiens, UniProt Q13554)", "remaining activity": "95.9%"}
{"target": "WNK3 (Homo sapiens, UniProt Q9BYP7)", "remaining activity": "77.7%"}
{"target": "EPHB1 (Homo sapiens, UniProt P54762)", "remaining activity": "76.9%"}
{"target": "RPS6KA5 (Homo sapiens, UniProt O75582)", "remaining activity": "87%"}
{"target": "RPS6KA6 (Homo sapiens, UniProt Q9UK32)", "remaining activity": "74.8%"}
{"target": "MAPKAPK3 (Homo sapiens, UniProt Q16644)", "remaining activity": "91%"}
{"target": "BLK (Homo sapiens, UniProt P51451)", "remaining activity": "91.2%"}
{"target": "EPHB4 (Homo sapiens, UniProt P54760)", "remaining activity": "82%"}
{"data": "Series 4", "host": "mouse", "sample": "microsomes or S9", "tested at": "2 µM", "time": "0.5 h"}
{"Compound": "CCCc1nc(N2CCN(CC(=O)N3CCCC3)CC2)c(C#N)c2c1CCC2", "remaining compound": "0.138%"}
{"Compound": "CS(=O)(=O)NCC(=O)N1Cc2ccccc2C(c2ccccc2)C1 (stereo not drawn)", "remaining compound": "97.6%"}
{"Compound": "CC(C(=O)O)n1ccc2c(cnc3ncnn32)c1=O (stereo not drawn)", "remaining compound": "77.6%"}
{"Compound": "CN1CCN(c2nsc(-c3ccccc3)c2C#N)CC1", "remaining compound": "0.381%"}
{"Compound": "O=C(Nc1nccs1)c1cc2ccc3cccnc3c2[nH]1", "remaining compound": "0.631%"}
{"Compound": "CC(=O)c1c(-c2cccc3ccccc23)nc2n(CCN3CCCCC3)c3ccccc3n12", "remaining compound": "0.0282%"}
{"Compound": "O=C(Nc1cccc2c1OCCC2O)c1cc2sccc2[nH]1 (stereo not drawn)", "remaining compound": "38%"}
{"Compound": "NC1CCN(c2nc3c(cc2F)c(=O)c(C(=O)O)cn3-c2ccc(F)cn2)C1 (stereo not drawn)", "remaining compound": "> 99%"}
{"Compound": "O=C(NC1(c2ccccc2F)CCCC1)c1cccc(N2CCCC2=O)c1", "remaining compound": "15.6%"}
{"note": "Some of these lines once more (series 4):"}
{"Compound": "CC(C(=O)O)n1ccc2c(cnc3ncnn32)c1=O (stereo not drawn)", "remaining compound": "77.6%"}
{"Compound": "CS(=O)(=O)NCC(=O)N1Cc2ccccc2C(c2ccccc2)C1 (stereo not drawn)", "remaining compound": "97.6%"}
{"Compound": "O=C(Nc1nccs1)c1cc2ccc3cccnc3c2[nH]1", "remaining compound": "0.631%"}
{"Compound": "O=C(NC1(c2ccccc2F)CCCC1)c1cccc(N2CCCC2=O)c1", "remaining compound": "15.6%"}
{"Compound": "O=C(Nc1cccc2c1OCCC2O)c1cc2sccc2[nH]1 (stereo not drawn)", "remaining compound": "38%"}
{"Compound": "CCCc1nc(N2CCN(CC(=O)N3CCCC3)CC2)c(C#N)c2c1CCC2", "remaining compound": "0.138%"}
{"Compound": "CC(=O)c1c(-c2cccc3ccccc23)nc2n(CCN3CCCCC3)c3ccccc3n12", "remaining compound": "0.0282%"}
{"Compound": "NC1CCN(c2nc3c(cc2F)c(=O)c(C(=O)O)cn3-c2ccc(F)cn2)C1 (stereo not drawn)", "remaining compound": "> 99%"}
